Results pooled from the literature.
Every numbered part comes from another study and shows a few of its results, in no order.

Block 1
Target: RNA binding protein fox-1 homolog 2, RRM domain, GST-SBP tag (RBFOX2, Homo sapiens, UniProt O43251-10, residues 100-194)
Technique: RNA Bind-n-Seq
Molecule type: RNA
Sample: in vitro
Tested at: 365 nM
Notes: natural RNA segment, single round, ends assumed
Relative to: no-protein control
Direction: higher = stronger binding
Construct (chain): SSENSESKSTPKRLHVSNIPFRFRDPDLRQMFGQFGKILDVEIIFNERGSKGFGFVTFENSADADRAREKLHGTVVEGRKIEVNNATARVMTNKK
Oligonucleotide | RBNS enrichment (R)
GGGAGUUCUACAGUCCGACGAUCAGAUGUCUAAGGUGGAUUCAGUGUCUGGCACACUGAGACACCUCCAAGAAGGAGAUUGAUGCAUCAGGUUCAGUUUAACCUGGAAUAUCUGACUACCCCUGAAUCCACCCUGGAAUUCUCGGGUGCCAA | 0.295
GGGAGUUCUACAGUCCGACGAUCGGAAAAGCCUUUCAGCUCACCCAUGGCUGCUGUGACUCCUACCAGGGCUUUCUUGGCUUUGGCGAAGGUCAGUGUACAGACAUUCCAUGGUACCAGAGUGCUCAGAAACUUGGAAUUCUCGGGUGCCAA | 0.205
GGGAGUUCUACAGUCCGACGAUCUAAGGUGGUGACAUUUAACACAGUUACUCUGUCUUUUUUCAGAUUAUGGGUAUUUAUCCUCUAUUAGUAUCAUAUCGUUUUCAUUCCACUUUAGAAACACAGUUACCAGUUGGAAUUCUCGGGUGCCAA | 0.398
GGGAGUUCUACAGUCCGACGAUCCGCGCAAGUCUGAGGGUCUGGGCGGCGGGCGGCUGGGUCUGUGCAUUUCUGGUUGCACCGCGGCGCUUCCCAGCACCAACAUGUAACCGGCAUGUUUCCAGCAGAAGACAUGGAAUUCUCGGGUGCCAA | 0.379
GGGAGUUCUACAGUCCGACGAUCUACCGGCUCUCUGUCACUCACCUUGAGAGUAGAGCAGACCCUGUUCUGCUCUGGGCUGUGAAGGGGUGGAGCAGGCAGUGGCCAGCUUUGCCCUUCCUGCUGUCUCUGUUUGGAAUUCUCGGGUGCCAA | 0.177
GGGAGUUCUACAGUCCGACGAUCUCUGUCACAAACCACAUUAAAUUGUAAAUAAGGCCCUUCUCCACUUGACUUCAGGCAGCAGAUUGUCUAGAAGCCUAAGGACAGCAAUUUCUCUGACAAGACAAAGUAGAUGGAAUUCUCGGGUGCCAA | 0.371
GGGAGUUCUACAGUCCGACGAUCUCCAAAGAUAUAGCAGCUCAUAAAUUUAUCAAAAGUUCUGUCCACCCUCACCUCCUGCCAAGGGGAGAGAUCUAUUUCUACUACACGCUGUCUCUCCCAGUACAUCCCCGUGGAAUUCUCGGGUGCCAA | 0.688
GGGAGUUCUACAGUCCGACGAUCAGGGCAUGGUCUCAUCUCCGCAUCAGGAAUUCACCUGGAGGUUGAAAAGAGAAAAGAAAAAGCACCAGCUCUUGUGUGUUUGUGACCUGAUGAAACACUUCCUGGCGUCUUGGAAUUCUCGGGUGCCAA | 0.76
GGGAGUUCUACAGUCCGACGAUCUAUUCUAUUGUAUUAUUUGGAGUUAGGUCCUCACUUGGGGGAAAAAAAAAAAAGAAAAGCCAAGCAAACCAAUGGUGAUCCUCUAUUUUGUGAUGAUGCUGUGACAAUAAUGGAAUUCUCGGGUGCCAA | 0.629
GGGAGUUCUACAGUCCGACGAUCAUUUGUUUGGCUUAAACGUCAAAAGCCGUGACAAUUUGUUCUUUGAUGUGAUUGUAUUUCCAAUUUCUUGUUCAUGUAAGAUUUCAAUAAAACUAAAAAAUCUAUUCAAAUGGAAUUCUCGGGUGCCAA | 1.1
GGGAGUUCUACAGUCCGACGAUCUUACCGGGAGGCAGGCUGUGCACAGAACCCUCUGCUGUGGAGGCCAGAGACCACCACCAGGCCCGCUCCCCACUGAGCCACUUAAGAUGAGCCCCUCAUUUGCACACAGUUGGAAUUCUCGGGUGCCAA | 0.673
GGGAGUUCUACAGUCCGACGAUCUGAAGAAAGCCCCUGAGAGAUGCACAUGGAGCCUGGAUCACUUCAUCCUCACACCUGUUCCCUCCAGAGGGCCCGGCUCCCUGCAUCAGGCAGCAGCCGCCCAUCUCGCCUGGAAUUCUCGGGUGCCAA | 0.337

Block 2
Target: Prothrombin, mature alpha-thrombin (F2, Homo sapiens, UniProt P00734)
Technique: aptamer microarray, sandwich
Molecule type: DNA with 2'F-ANA
Sample: in vitro
Tested at: 200 nM
Notes: whole 15-mer aptamer, many near background
Together with: Cy3 exosite-II aptamer, 400 nM
Direction: higher = stronger binding
Oligonucleotide: GGTTGGTGTGGTTGG
Modification | mean fluorescence intensity
2'F-ANA at 1 2 3 4 7 9 11 13 | 272 a.u.
2'F-ANA at 1 2 6 7 10 14 | 45.8 a.u.
2'F-ANA at 4 5 6 11 | 57.3 a.u.
2'F-ANA at 1 2 3 4 6 7 12 14 15 | 72.3 a.u.
2'F-ANA at 1 2 3 4 5 6 10 11 12 13 15 | 47.7 a.u.
2'F-ANA at 4 7 8 9 11 12 | 456 a.u.
2'F-ANA at 2 3 9 11 12 13 15 | 819 a.u.
2'F-ANA at 1 4 5 7 12 13 14 15 | 43.1 a.u.
2'F-ANA at 1 4 5 8 9 10 12 15 | 55.2 a.u.
2'F-ANA at 1 4 5 9 11 | 51.6 a.u.
2'F-ANA at 1 2 3 4 5 6 7 8 10 11 14 | 50.5 a.u.
2'F-ANA at 1 2 3 4 5 7 9 10 13 14 15 | 117 a.u.
2'F-ANA at 1 3 4 6 7 8 11 14 | 74 a.u.
2'F-ANA at 2 4 7 9 10 11 12 15 | 117 a.u.
2'F-ANA at 2 3 4 9 10 11 12 13 14 15 | 171 a.u.
2'F-ANA at 1 2 3 4 6 7 9 10 13 | 52.1 a.u.
2'F-ANA at 1 2 3 4 5 8 9 14 15 | 45.6 a.u.
2'F-ANA at 3 4 5 10 11 12 14 15 | 47.9 a.u.
2'F-ANA at 8 10 11 12 15 | 170 a.u.
2'F-ANA at 1 2 3 4 6 7 8 10 12 13 | 66.7 a.u.
2'F-ANA at 2 3 5 6 8 10 12 | 58.7 a.u.
2'F-ANA at 1 4 7 10 15 | 50.7 a.u.
2'F-ANA at 1 3 5 6 7 10 12 | 48 a.u.
2'F-ANA at 1 4 6 7 8 9 10 11 14 | 48 a.u.
2'F-ANA at 1 2 6 7 12 13 14 | 97.5 a.u.

Block 3
Target: Ras GTPase-activating protein-binding protein 1, RRM domain (G3BP1, Homo sapiens, UniProt Q13283)
UniProt Q13283, sequence (whole entry, looked up): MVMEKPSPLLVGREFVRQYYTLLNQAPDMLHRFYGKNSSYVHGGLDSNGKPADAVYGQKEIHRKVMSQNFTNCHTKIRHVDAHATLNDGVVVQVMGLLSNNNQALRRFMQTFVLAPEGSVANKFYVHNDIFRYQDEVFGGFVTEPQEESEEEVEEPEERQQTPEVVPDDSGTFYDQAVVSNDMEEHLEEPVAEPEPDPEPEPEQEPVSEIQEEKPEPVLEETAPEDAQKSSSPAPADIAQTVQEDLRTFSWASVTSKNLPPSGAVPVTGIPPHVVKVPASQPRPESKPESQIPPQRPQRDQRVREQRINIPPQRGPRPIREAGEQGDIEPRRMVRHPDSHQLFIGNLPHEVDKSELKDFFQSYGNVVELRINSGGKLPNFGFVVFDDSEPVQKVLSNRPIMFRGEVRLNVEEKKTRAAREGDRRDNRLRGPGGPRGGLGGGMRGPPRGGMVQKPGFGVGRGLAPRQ
Technique: RNA Bind-n-Seq
Molecule type: RNA
Sample: in vitro
Tested at: 1 µM
Notes: whole 134-nt RNA, ends assumed
Together with: 150 mM KCl
Relative to: input library
Direction: higher = stronger binding
Oligonucleotide | log2 enrichment
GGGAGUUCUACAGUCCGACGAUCUAACUUUAGAGGAGGAUCUGAUGGAUAUGGCAGUGGACGUGGAUUUGGGGAUGGCUAUAAUGGGUACGGAGGAGGACCUGGAGGUGGCAAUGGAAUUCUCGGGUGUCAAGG | -0.302
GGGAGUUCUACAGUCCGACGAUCUAACUUUAGAGGAGGAUCUGAUGGAUAUGGCAGUGGACGUGGAUUUGGGGAUGGCUAUAAUGGGUAUGGAGGAGGACGUGGAGGUGGCAAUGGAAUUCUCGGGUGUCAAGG | -0.296
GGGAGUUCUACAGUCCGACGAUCUCCUGUGCUACACAUCGUAUGUACCGAAUCGGUUUUUGGGGUUUUUGGGGUUUUUGGGGAAAGUAUUAUGUUACGCCGUUCGGAUCUGCAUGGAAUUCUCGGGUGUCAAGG | 0.0125
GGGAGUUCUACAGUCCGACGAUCUGGGAGGUGGAUUUUGUUUAUUUUUUUAGCUCAUUUCCAGGGGUGGGAAUUUUUUUUUAAUAUGUGUCAUGAAUAAUGUUGUUUUUGAAAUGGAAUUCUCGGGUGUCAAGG | 0.863
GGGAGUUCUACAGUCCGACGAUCCACAGACAACACGCACCCACACAGACACAGAGGGAAGGGGUUGGGAUGGGGACAGGGUGCACAGCAGGGCGGGGUACGACCCCAGCCCCUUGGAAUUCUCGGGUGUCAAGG | -0.263
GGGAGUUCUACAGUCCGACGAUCCACAGACAACACGCACCCACACAGACACAGAGGGAAGGGGUUGGGAUGGGGACAAAGUGCACAGCAGGGCGGGGUAGGACCCCAGCCCCUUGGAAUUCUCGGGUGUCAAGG | -0.142
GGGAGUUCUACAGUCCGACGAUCGCAGGAAGUAAAAACAAAUGGAAAUGCUUCGGAUAGUGGCAGGGGUGGGGGUUGCUAAGGAAAGGGUGGGAUAGGAGUGGGUAAAGAGUUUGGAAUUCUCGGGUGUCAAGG | 1.25
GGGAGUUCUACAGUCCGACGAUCUCCUGUGCUACACAUCGUAUGUACCGAAUCGGGUUUGGGAAAAAAAGGGUUUUUUUGGGAAAGUAUUAUGUUACGCCGUUCGGAUCUGCAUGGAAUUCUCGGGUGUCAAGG | 0.0935
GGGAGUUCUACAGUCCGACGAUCUCAAGUCCUGUGCUACACAUCGUAUGUACCGAAUCGGAAAAAGGUUUGGAAAGGAAAGUAUUAUGUUACGCCGUUCGGAUCUGCACUUCCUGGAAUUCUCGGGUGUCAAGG | -0.175
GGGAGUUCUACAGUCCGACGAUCACCAUGCAGGUGGGCAUCUUUGGGAAGUGGGGCAAGGGGGGGAUAGGGAGGGGGGUAACACAAAGGGAACAGGUGGUCCCAGGUCGUUUCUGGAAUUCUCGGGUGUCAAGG | -0.464

Block 4
Target: Sal-like protein 4, full length isoform A (SALL4, Homo sapiens, UniProt Q9UJQ4, residues 1-1053)
UniProt Q9UJQ4, sequence (whole entry, looked up): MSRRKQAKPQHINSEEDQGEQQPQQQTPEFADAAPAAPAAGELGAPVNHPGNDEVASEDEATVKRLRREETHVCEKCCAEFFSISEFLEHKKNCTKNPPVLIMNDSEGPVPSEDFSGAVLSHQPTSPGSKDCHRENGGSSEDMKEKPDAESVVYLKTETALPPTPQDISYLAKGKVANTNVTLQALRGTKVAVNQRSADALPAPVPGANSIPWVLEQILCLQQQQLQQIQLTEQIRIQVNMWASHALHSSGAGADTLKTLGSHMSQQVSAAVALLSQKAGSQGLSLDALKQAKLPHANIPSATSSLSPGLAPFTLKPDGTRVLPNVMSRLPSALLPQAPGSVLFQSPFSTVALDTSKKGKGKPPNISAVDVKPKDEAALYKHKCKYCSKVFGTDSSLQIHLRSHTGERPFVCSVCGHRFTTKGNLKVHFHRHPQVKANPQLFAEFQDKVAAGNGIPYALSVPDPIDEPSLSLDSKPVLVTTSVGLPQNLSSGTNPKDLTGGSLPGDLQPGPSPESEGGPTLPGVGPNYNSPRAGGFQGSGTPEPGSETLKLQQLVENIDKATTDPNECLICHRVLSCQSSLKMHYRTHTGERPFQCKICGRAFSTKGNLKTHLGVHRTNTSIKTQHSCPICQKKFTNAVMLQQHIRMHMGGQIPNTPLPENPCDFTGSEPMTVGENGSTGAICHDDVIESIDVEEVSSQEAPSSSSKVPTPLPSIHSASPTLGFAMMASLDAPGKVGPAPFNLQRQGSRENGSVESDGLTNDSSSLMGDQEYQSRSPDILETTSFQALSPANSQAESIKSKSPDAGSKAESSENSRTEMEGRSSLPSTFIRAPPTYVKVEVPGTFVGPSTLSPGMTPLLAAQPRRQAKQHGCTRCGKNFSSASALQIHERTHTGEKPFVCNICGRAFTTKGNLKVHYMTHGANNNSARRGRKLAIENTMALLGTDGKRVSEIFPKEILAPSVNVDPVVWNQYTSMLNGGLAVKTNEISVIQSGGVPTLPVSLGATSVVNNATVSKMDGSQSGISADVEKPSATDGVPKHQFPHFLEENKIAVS
Technique: universal PBM
Molecule type: double-stranded DNA, one strand shown
Sample: in vitro
Tested at: 600 nM
Notes: 8-mer, flanks averaged, mean of replicates
Direction: higher = stronger binding
Oligonucleotide | E-score
CATAGTAA | 0.316
AAAGCTAT | 0.207
AGAGGTTC | -0.00148
GGATAACC | -0.165
GCCCAGAA | -0.243
ACGATTTG | 0.102
GTCTCCTA | -0.0219
ACACATTA | 0.223
CTGATACC | 0.081
ATCTCCAT | -0.0342
CTAAGTAG | 0.0245
ACTATTGA | 0.264
ATAGTCTG | 0.187
AGCAACCT | -0.152
AACCTCCG | -0.207
AACTGGAA | 0.0669
CCCCAGAA | -0.218
GAGCCTCC | -0.232
CTAGCCCC | -0.165
ACAACCGG | -0.119
CAATTGAG | -0.0446
GCTAATTA | 0.164

A few entries again (block 1):
Oligonucleotide | RBNS enrichment (R)
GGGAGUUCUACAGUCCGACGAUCGGAAAAGCCUUUCAGCUCACCCAUGGCUGCUGUGACUCCUACCAGGGCUUUCUUGGCUUUGGCGAAGGUCAGUGUACAGACAUUCCAUGGUACCAGAGUGCUCAGAAACUUGGAAUUCUCGGGUGCCAA | 0.205
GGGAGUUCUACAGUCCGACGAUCAUUUGUUUGGCUUAAACGUCAAAAGCCGUGACAAUUUGUUCUUUGAUGUGAUUGUAUUUCCAAUUUCUUGUUCAUGUAAGAUUUCAAUAAAACUAAAAAAUCUAUUCAAAUGGAAUUCUCGGGUGCCAA | 1.1
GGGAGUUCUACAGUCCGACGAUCUCUGUCACAAACCACAUUAAAUUGUAAAUAAGGCCCUUCUCCACUUGACUUCAGGCAGCAGAUUGUCUAGAAGCCUAAGGACAGCAAUUUCUCUGACAAGACAAAGUAGAUGGAAUUCUCGGGUGCCAA | 0.371
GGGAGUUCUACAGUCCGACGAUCUAAGGUGGUGACAUUUAACACAGUUACUCUGUCUUUUUUCAGAUUAUGGGUAUUUAUCCUCUAUUAGUAUCAUAUCGUUUUCAUUCCACUUUAGAAACACAGUUACCAGUUGGAAUUCUCGGGUGCCAA | 0.398
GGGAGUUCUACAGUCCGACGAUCAGGGCAUGGUCUCAUCUCCGCAUCAGGAAUUCACCUGGAGGUUGAAAAGAGAAAAGAAAAAGCACCAGCUCUUGUGUGUUUGUGACCUGAUGAAACACUUCCUGGCGUCUUGGAAUUCUCGGGUGCCAA | 0.76
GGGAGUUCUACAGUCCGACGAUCUUACCGGGAGGCAGGCUGUGCACAGAACCCUCUGCUGUGGAGGCCAGAGACCACCACCAGGCCCGCUCCCCACUGAGCCACUUAAGAUGAGCCCCUCAUUUGCACACAGUUGGAAUUCUCGGGUGCCAA | 0.673
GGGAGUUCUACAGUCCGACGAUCCGCGCAAGUCUGAGGGUCUGGGCGGCGGGCGGCUGGGUCUGUGCAUUUCUGGUUGCACCGCGGCGCUUCCCAGCACCAACAUGUAACCGGCAUGUUUCCAGCAGAAGACAUGGAAUUCUCGGGUGCCAA | 0.379
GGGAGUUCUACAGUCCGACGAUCUGAAGAAAGCCCCUGAGAGAUGCACAUGGAGCCUGGAUCACUUCAUCCUCACACCUGUUCCCUCCAGAGGGCCCGGCUCCCUGCAUCAGGCAGCAGCCGCCCAUCUCGCCUGGAAUUCUCGGGUGCCAA | 0.337
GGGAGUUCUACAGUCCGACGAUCUACCGGCUCUCUGUCACUCACCUUGAGAGUAGAGCAGACCCUGUUCUGCUCUGGGCUGUGAAGGGGUGGAGCAGGCAGUGGCCAGCUUUGCCCUUCCUGCUGUCUCUGUUUGGAAUUCUCGGGUGCCAA | 0.177
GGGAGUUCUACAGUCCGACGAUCUCCAAAGAUAUAGCAGCUCAUAAAUUUAUCAAAAGUUCUGUCCACCCUCACCUCCUGCCAAGGGGAGAGAUCUAUUUCUACUACACGCUGUCUCUCCCAGUACAUCCCCGUGGAAUUCUCGGGUGCCAA | 0.688
